Results of several laboratories.
Protocols differ between the studies behind these lines. Values joined by “and” are separate records of one study, mostly repeats; a detail may differ. ± marks the error that the study gave.
CASP6: Caspase-6 (CASP6, Homo sapiens, UniProt P55212)
Sequence of UniProt P55212 (whole entry, looked up): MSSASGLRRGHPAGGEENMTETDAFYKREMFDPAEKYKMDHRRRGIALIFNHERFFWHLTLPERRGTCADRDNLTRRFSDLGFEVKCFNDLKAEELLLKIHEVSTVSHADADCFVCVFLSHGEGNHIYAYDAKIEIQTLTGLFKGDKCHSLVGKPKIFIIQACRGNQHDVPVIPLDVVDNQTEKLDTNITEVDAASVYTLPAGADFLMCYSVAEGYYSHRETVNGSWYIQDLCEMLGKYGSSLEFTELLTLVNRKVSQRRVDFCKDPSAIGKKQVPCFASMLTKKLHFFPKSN
TDP1: Tyrosyl-DNA phosphodiesterase 1 (TDP1, Homo sapiens, UniProt Q9NUW8)
Sequence of UniProt Q9NUW8 (whole entry, looked up): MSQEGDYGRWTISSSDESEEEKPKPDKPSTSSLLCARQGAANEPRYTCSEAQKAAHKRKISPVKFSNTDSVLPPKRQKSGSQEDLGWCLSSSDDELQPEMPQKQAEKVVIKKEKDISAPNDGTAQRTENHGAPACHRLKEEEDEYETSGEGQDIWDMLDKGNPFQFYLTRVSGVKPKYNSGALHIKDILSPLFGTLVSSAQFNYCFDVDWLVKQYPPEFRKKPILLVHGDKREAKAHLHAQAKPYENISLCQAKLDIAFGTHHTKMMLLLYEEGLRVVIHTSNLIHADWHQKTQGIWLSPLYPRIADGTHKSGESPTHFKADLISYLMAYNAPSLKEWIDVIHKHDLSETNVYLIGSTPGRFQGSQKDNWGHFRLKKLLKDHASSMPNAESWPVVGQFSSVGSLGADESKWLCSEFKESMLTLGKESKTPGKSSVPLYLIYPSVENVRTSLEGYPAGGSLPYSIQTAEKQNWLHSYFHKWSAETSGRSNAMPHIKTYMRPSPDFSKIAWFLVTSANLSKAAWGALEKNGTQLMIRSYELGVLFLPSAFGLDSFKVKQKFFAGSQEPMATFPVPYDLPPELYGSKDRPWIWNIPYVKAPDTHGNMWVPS
Uncharacterized protein: Uncharacterized protein (Trypanosoma brucei brucei, UniProt Q386Q8)
Gria1: Glutamate receptor 1 (Gria1, Rattus norvegicus, UniProt P19490)
Sequence of UniProt P19490 (whole entry, looked up): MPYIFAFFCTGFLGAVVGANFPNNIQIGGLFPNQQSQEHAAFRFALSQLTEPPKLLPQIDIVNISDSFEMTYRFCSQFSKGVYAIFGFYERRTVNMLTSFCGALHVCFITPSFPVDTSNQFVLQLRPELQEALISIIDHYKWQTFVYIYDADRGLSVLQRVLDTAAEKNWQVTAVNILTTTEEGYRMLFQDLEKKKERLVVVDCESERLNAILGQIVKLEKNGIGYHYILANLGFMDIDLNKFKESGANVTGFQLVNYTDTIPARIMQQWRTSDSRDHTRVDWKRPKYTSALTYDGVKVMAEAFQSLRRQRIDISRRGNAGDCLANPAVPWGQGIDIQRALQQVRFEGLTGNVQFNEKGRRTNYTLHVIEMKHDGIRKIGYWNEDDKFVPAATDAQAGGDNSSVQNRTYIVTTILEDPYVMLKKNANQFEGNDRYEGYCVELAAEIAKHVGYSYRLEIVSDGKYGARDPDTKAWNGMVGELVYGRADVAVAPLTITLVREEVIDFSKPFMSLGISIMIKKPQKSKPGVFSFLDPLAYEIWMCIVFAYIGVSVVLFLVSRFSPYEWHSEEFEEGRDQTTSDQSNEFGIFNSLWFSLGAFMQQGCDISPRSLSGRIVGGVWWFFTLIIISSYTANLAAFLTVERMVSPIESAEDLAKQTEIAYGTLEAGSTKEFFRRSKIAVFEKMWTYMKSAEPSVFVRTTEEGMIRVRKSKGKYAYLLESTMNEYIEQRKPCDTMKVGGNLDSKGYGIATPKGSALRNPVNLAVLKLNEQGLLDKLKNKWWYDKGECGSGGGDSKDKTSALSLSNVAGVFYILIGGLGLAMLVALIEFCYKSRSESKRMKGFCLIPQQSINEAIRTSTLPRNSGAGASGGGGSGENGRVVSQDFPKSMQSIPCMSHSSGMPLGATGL
T1: dsDNA, duplex; chain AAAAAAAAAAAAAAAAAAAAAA; chain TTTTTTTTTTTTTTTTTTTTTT
Sequence of UniProt Q9CAJ0 (whole entry, looked up): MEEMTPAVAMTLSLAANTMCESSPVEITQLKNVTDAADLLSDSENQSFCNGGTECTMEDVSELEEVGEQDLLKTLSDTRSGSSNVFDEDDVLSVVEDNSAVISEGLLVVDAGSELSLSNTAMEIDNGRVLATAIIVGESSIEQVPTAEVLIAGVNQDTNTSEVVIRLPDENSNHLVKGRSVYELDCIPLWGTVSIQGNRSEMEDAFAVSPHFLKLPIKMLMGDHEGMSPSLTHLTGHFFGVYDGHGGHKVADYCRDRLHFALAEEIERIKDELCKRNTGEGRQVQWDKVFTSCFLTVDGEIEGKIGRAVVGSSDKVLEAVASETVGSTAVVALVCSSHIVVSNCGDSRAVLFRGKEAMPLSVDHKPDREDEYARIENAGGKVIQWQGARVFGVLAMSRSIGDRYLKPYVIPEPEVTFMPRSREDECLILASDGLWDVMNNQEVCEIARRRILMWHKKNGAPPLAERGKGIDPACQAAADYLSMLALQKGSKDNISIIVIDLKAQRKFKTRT
Sequence of UniProt Q9NRG0 (whole entry, looked up): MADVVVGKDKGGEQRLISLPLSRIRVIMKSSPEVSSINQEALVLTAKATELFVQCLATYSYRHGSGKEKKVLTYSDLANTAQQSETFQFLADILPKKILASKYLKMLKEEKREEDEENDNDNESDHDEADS
Sequence of UniProt Q9NX63 (whole entry, looked up): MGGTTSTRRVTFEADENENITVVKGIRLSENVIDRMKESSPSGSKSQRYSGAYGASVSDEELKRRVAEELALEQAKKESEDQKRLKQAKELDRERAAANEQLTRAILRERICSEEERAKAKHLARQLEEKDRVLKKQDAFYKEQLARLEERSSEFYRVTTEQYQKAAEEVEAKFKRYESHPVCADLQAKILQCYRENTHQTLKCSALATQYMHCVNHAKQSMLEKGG
Sequence of UniProt P25999 (whole entry, looked up): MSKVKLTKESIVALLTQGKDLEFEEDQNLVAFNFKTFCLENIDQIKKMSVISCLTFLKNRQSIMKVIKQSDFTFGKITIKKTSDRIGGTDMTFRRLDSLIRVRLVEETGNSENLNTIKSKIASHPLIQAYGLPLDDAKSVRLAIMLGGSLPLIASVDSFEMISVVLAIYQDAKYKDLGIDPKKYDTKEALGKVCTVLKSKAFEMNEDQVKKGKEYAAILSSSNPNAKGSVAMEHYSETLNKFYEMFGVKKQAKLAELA
Sequence of UniProt P28482 (whole entry, looked up): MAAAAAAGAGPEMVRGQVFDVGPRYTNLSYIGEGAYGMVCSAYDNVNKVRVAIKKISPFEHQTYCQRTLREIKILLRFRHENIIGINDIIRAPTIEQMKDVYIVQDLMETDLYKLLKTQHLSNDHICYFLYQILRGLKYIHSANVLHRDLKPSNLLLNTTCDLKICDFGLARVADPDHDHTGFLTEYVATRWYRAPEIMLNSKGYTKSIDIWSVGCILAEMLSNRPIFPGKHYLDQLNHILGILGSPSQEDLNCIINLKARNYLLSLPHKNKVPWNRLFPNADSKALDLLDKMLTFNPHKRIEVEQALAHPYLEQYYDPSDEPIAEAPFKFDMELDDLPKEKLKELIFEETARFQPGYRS
Sequence of UniProt P28074 (whole entry, looked up): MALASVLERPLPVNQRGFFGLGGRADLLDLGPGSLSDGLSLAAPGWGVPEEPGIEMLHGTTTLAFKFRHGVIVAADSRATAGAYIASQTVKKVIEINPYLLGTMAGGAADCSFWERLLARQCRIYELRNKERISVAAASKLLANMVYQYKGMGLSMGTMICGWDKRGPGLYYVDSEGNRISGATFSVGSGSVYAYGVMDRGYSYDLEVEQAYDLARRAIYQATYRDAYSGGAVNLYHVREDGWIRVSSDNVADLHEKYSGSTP
Sequence of UniProt Q13148 (whole entry, looked up): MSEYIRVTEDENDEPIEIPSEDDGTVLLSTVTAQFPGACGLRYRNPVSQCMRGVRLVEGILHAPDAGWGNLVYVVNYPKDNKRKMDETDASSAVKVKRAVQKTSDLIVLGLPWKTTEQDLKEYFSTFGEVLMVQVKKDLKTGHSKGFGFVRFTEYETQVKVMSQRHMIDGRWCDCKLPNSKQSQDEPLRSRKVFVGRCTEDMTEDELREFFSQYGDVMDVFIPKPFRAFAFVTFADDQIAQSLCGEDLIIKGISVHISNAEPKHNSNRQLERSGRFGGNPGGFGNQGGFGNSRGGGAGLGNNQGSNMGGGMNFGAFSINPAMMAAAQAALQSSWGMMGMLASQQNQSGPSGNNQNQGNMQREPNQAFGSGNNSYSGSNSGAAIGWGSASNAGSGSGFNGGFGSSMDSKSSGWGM
Sequence of UniProt O60664 (whole entry, looked up): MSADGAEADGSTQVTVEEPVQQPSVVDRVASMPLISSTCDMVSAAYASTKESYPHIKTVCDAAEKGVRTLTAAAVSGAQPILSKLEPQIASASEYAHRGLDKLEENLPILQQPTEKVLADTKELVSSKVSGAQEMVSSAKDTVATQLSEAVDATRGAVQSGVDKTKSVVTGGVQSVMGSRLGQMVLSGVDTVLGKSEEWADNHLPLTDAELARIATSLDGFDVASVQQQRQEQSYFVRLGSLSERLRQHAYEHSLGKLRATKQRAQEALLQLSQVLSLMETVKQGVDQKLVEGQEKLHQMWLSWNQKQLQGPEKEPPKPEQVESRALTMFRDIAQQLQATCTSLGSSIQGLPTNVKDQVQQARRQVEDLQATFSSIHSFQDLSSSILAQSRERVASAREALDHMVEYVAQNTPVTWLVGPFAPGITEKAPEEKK
Sequence of UniProt P09391 (whole entry, looked up): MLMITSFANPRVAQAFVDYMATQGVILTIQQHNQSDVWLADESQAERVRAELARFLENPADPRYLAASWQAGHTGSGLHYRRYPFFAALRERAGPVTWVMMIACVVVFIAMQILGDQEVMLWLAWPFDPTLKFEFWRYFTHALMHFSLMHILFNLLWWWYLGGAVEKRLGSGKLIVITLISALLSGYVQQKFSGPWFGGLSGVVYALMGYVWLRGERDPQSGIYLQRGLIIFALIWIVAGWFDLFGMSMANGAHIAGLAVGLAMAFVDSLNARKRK
Sequence of UniProt P00698 (whole entry, looked up): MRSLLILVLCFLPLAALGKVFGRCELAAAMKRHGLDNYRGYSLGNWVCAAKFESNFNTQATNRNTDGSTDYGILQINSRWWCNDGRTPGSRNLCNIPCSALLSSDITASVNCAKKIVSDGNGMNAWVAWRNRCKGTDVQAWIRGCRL

For Fc1ccc(Nc2nc(NC3CCCCC3)c3ccccc3n2)cc1Cl, the bias factor was 8 fold (ADRB2 (Homo sapiens, UniProt P07550); β-arrestin2 recruitment, PathHunter and GloSensor; baseline: GloSensor IC50 over PathHunter IC50).
CC(=O)N[C@@H](CC(=O)O)C(=O)N[C@@H](CO)C(=O)N[C@H](C(=O)N[C@@H](CC(=O)O)C(=O)COC(=O)c1c(C)cccc1C)C(C)C gave a kinact/KI of 85000 M⁻¹ s⁻¹ (CASP6; enzyme activity, inhibitor).
O=[N+]([O-])c1cc(Br)cc([N+](=O)[O-])c1NS(=O)(=O)c1ccc(Br)cc1 has a phosphatase activity of 1.14 a.u. and 1.15 a.u. and 0.945 a.u. (HAB1 (Arabidopsis thaliana, UniProt Q9CAJ0); inhibitor; 10 µM, no PYL receptor; higher = more activity).
With CCOc1cccc2ccc(C=NOCc3ccc4nc(-c5ccccc5)c(Nc5ccc(C(=O)O)cc5)n4c3)nc12 (mixture of isomers) the inhibition was -20.6% (TDP1; enzyme activity, inhibitor; 100 µM, unpurified compound).
C#CCOC(=O)[C@]1(C)C=C(C(=O)OC(C)(C)C)C(=O)CC1 has a fraction bound of 0.13 (MAPK8 (Homo sapiens, UniProt P45983); fluorescence polarization; 100 µM, with: D-peptide tracer).
N#CCOc1ccc(Br)cc1C=NOCc1ccc2nc(-c3ccccc3)c(Nc3ccc(C(=O)O)cc3)n2c1 gave an inhibition of 34.3% (TDP1; enzyme activity, inhibitor; 100 µM, unpurified compound).
CCCCCCCCCCCCC/C=C/C=O: “isoTOP-ABPP competition ratio” 1 (Chromatin accessibility complex protein 1 (CHRAC1, Homo sapiens, UniProt Q9NRG0); competitive isoTOP-ABPP, item: CHRAC1 cysteine peptide; Ramos soluble proteome; 100 µM, with: iodoacetamide probe; baseline: DMSO over compound-treated, higher = stronger cysteine blockade).
CC(=O)N[C@H](C(=O)N[C@@H](CCC(=O)O)C(=O)N[C@@H](C)C(=O)N[C@@H](CC(=O)O)C(=O)COC(=O)c1c(C)cccc1C)C(C)C gave a kinact/KI of 338000 M⁻¹ s⁻¹ (CASP6; enzyme activity, inhibitor).
With COc1ccc(OC)c(C2=Nn3c(nnc3-c3ccc(C)cc3)SC2)c1 the Hill slope was 0.89 (Uncharacterized protein; inhibitor, coupled colorimetric; Trypanosoma brucei).
The specific binding of O=C1c2sc(-c3ccc(N4CCC(F)C4)nc3F)nc2CCN1c1cccnc1 (centres unmarked) is reported as 0.025 nM (TAR DNA-binding protein 43, aggregated (TARDBP, Homo sapiens, UniProt Q13148); radioligand binding; control brain sarkosyl-insoluble extract; 9.68 nM).
The inhibition of O=C(O)c1ccc(Nc2c(-c3ccc(CON=Cc4nc5ccccc5s4)cc3)nc3cc(-c4ccccc4)ccn23)cc1 is reported as 87.1% (TDP1; enzyme activity, inhibitor; 100 µM, unpurified compound).
CCCCCCCO[C@H]1O[C@H](CO)[C@@H](O)[C@H](O)[C@@H]1O has a binding stoichiometry of 1 ± 0.02 (Type 1 fimbrin D-mannose specific adhesin, lectin domain (fimH, Escherichia coli K-12, UniProt P08191); isothermal titration calorimetry; concentration not given, 25 °C).
For O=C(O)c1ccc(Nc2c(-c3ccc(CON=Cc4ccc(N5CCC(CO)CC5)cc4)cc3)nc3cc(-c4ccccc4)ccn23)cc1 (mixture of isomers), the inhibition was 98.7% (TDP1; enzyme activity, inhibitor; 100 µM, unpurified compound).
The Hill slope of COc1ccc2c(c1OC)C(=O)N(c1ccc(OC(F)(F)F)cc1)C2 is reported as -0.5 (Uncharacterized protein; inhibitor, coupled colorimetric; Trypanosoma brucei).
COc1cc([N+](=O)[O-])ccc1C=NOCc1ccc2nc(-c3ccccc3)c(Nc3ccc(C(=O)O)cc3)n2c1 (mixture of isomers) has an inhibition of 64.4% (TDP1; enzyme activity, inhibitor; 100 µM, unpurified compound).
The SILAC ratio of Cc1cc(C)cc(COc2cc3c(cc2OCc2cc(C)cc(C)c2)C2CC(O)(Cc4cn(CCOCCOCCNC(=O)CCCCC5SCC6NC(=O)NC65)nn4)CC(C)N2CC3)c1 (centres unmarked) is reported as 1.69 (MICOS complex subunit MIC19 (Homo sapiens, UniProt Q9NX63); biotinylated probe pull-down, item: CHCHD3; 10 µM probe; baseline: heavy over light).
With CN(C)c1nc(Cl)c(C=NOCc2ccc3nc(-c4ccccc4)c(Nc4ccc(C(=O)O)cc4)n3c2)s1 (mixture of isomers) the inhibition was 6.6% (TDP1; enzyme activity, inhibitor; 100 µM, unpurified compound).
For COC(=O)Cc1cc2c(cc1C(=O)c1cccc(I)c1)OCO2, the current amplitude was 523 ± 47 pA (Gria1; glutamate-evoked current, whole-cell patch clamp; HEK-293T; concentration not given, pH 7.4, holding potential -60 mV, with: 10 mM glutamate).
The remaining activity of CC(C)[C@@H]1NC(=O)[C@H](Cc2ccccc2)NC(=O)CSC[C@@H](C(N)=O)NC(=O)[C@H](CCC(=O)O)NC(=O)[C@H](CO)NC(=O)[C@H](Cc2c[nH]c3cccc(Cl)c23)NC(=O)[C@H](C2CCCCC2)NC(=O)[C@H](C(C)C)NC(=O)[C@H](Cc2ccc(O)cc2)NC(=O)[C@H](CC(=O)O)NC(=O)[C@H](Cc2c[nH]c3ccccc23)NC(=O)[C@H](Cc2ccc(N)nc2)NC(=O)[C@H](Cc2c[nH]c3ccc(Cl)cc23)NC(=O)[C@H](CCC(=O)O)NC1=O is reported as 66.6% (Interleukin-1 receptor-like 2 (IL1RL2, Homo sapiens, UniProt Q9HB29); reporter gene (SEAP), inhibitor, HEK-Blue IL-36R reporter; HEK-Blue IL-36R cells; 1.23 µM, 6 h, with: IL-36β 1 ng/mL).
CC(=O)N1CCC[C@H]1C(=O)N[C@@H](CCC(N)=O)C(=O)N[C@@H](C)C(=O)N[C@@H](CC(=O)O)C(=O)COC(=O)c1c(C)cccc1C has a kinact/KI of 4800 M⁻¹ s⁻¹ (CASP6; enzyme activity, inhibitor).
With CCCCCCOc1ccc(C(=O)OCC[N+]2(C)CC=CCC2)cc1 (centres unmarked) the basal binding was 0.74 ± 0.05 fold (CHRM3 (Homo sapiens, UniProt P20309); membranes; 100 µM, 15 h, no carbachol; baseline: control).
Under “deactivation time constant”, O=C(O)Cc1cc2c(cc1C(=O)c1cccc(I)c1)OCO2 is recorded as 3.6 ± 0.2 ms (Gria1; whole-cell patch clamp; HEK-293T; concentration not given, with: glutamate).
Under “isoTOP-ABPP competition ratio”, CCCCCC(O)/C=C/C=O (centres unmarked) is recorded as 1.8 (Chromatin accessibility complex protein 1, Cys55 (CHRAC1, Homo sapiens, UniProt Q9NRG0); competitive isoTOP-ABPP; Ramos soluble proteome; 100 µM, 60 min, with: iodoacetamide probe; baseline: DMSO over compound-treated, higher = stronger cysteine blockade).
The remaining activity of COC(=O)[C@@]1(C)C=C(C(=O)Nc2cccc(C(=O)Nc3ccc(Nc4nccc(-c5cccnc5)n4)c(C)c3)c2)C(=O)CC1 is reported as 0.909 (MAPK1 (Homo sapiens, UniProt P28482); kinase activity, inhibitor; 14.81 µM, unit not given; baseline: no inhibitor).
Under “isoTOP-ABPP competition ratio”, CCCCCC=CC=C1C(=O)C=CC1CC=CCCCC(=O)O (centres unmarked) is recorded as 5.6 (Perilipin-3 (PLIN3, Homo sapiens, UniProt O60664); competitive isoTOP-ABPP, item: M6PRBP1 cysteine peptide; Ramos soluble proteome; 100 µM, with: iodoacetamide probe; baseline: DMSO over compound-treated, higher = stronger cysteine blockade).
The kinact/KI of CC(=O)N[C@@H](Cc1c[nH]c2ccccc12)C(=O)N[C@@H](CCC(=O)O)C(=O)N[C@@H](Cc1c[nH]cn1)C(=O)N[C@@H](CC(=O)O)C(=O)COC(=O)c1c(C)cccc1C is reported as 24700 M⁻¹ s⁻¹ (CASP6; enzyme activity, inhibitor).
CCO has a particle diameter of 6.1 nm (Lysozyme C (LYZ, Gallus gallus, UniProt P00698); static light scattering; pH 7, 25 °C, with: NaCl 50 mM).
CN1CCC[C@@H]1C(=O)N[C@@H](Cc1ccc(-c2ccccc2)cc1)B(O)O gave a residence time of 18 min (Proteasome component C5/PSMB5 (Homo sapiens, UniProt P20618+P28074); progress curve).
The fibril diameter of CCCCCCCCCCCCCCCC(=O)OCC(CSC[C@H](N)C(=O)N[C@@H](CO)C(=O)N[C@@H](CCCCN)C(=O)N[C@@H](CCCCN)C(=O)N[C@@H](CCCCN)C(=O)N[C@@H](CCCCN)C(=O)NCCCCCC(=O)N[C@@H](CCCCN)C(=O)N[C@@H](CC(C)C)C(=O)N[C@H](C(=O)N[C@@H](Cc1ccccc1)C(=O)N[C@@H](Cc1ccccc1)C(=O)N[C@@H](Cc1ccc2ccccc2c1)C(=O)O)C(C)C)OC(=O)CCCCCCCCCCCCCCC (some centres unmarked) is reported as 96.9 nm (Amyloid-beta precursor protein, fibrillar amyloid-beta (APP, Homo sapiens, UniProt P05067); TEM; 2.0 eq, 5 h, fibril 4, with: APP 20 µM).
CC(C)NCCCn1c(Sc2cc3c(cc2I)OCO3)nc2c(N)ncnc21 has a ΔH of -12.3 ± 0.96 kcal/mol (HSP90AA1/HSP90B1 (Homo sapiens, UniProt P07900+P41148, E62I/S52A/Y61L); ITC).
For Cc1nn(C)c2nc(Cl)c(C=NOCc3ccc4nc(-c5ccccc5)c(Nc5ccc(C(=O)O)cc5)n4c3)cc12, the inhibition was 22.5% (TDP1; enzyme activity, inhibitor; 100 µM, unpurified compound).
Under “current amplitude after recovery”, COC(=O)Cc1cc2c(cc1C(=O)c1ccccc1I)OCO2 is recorded as 867 ± 339 pA (Gria1; glutamate-evoked current, whole-cell patch clamp; HEK-293T; concentration not given, glutamate alone after washout, with: glutamate).
For NC(=O)c1cccc(CN(Cc2ccc(Cl)c(Cl)c2)C(=O)NC(CN2CCCCC2)c2ccccc2)c1 (centres unmarked), the log(tau/KA) was 4.07 (OPRK1 (Homo sapiens, UniProt P41145); beta-arrestin recruitment).
CN(C)CCCSC(=S)N1CCN(C(=O)/C=C/c2coc3ccccc3c2=O)CC1: “normalised MST response” 0.261 (Nucleoprotein (N, Tomato spotted wilt virus, UniProt P25999); binding, microscale thermophoresis; 31.25 µM; dose series).
With O=C1c2sc(-c3ccc(N4CCC(CO)CC4)nc3F)nc2CCN1c1cccnc1 the inhibition was -15% (ADRB3 (Homo sapiens, UniProt P13945); ligand displacement, radioligand; 1 µM).
The kinact/KI of CC(=O)N[C@@H](CC(C)C)C(=O)N[C@H](C(=O)N[C@@H](Cc1ccc(O)cc1)C(=O)N[C@@H](CC(=O)O)C(=O)COC(=O)c1c(C)cccc1C)C(C)(C)C is reported as 24100 M⁻¹ s⁻¹ (CASP6; enzyme activity, inhibitor).
The basal binding of CCCCCCOc1ccc(C(=O)OCCN2CC=CCC2)cc1 is reported as 1.18 ± 0.05 fold (CHRM5 (Homo sapiens, UniProt P08912); membranes; 1 µM, 15 h, no carbachol; baseline: control).
With CC[C@H](C)[C@@H]1NC(=O)[C@H](Cc2ccc(O)cc2)NC(=O)[C@H](Cc2ccccc2)NC(=O)[C@H](Cc2ccccc2)NC(=O)[C@H](Cc2ccccc2)NC(=O)CSC[C@@H](C(=O)N[C@@H](Cc2c[nH]cn2)C(N)=O)NC(=O)[C@H](CC(N)=O)NC(=O)[C@H](Cc2c[nH]c3ccccc23)NC1=O the ΔTm was -0.26 °C (Bromodomain-containing protein 4, BD1 (BRD4, Homo sapiens, UniProt O60885); thermal stability, DSF; 50 µM).
O=C(O)c1ccc(Nc2c(-c3ccc(CON=Cc4sccc4Oc4ccccc4)cc3)nc3cc(-c4ccccc4)ccn23)cc1 has an inhibition of 95.3% (TDP1; enzyme activity, inhibitor; 100 µM).
CCCCCCCCn1c(CC)c(C)[n+](CCCCCCCC)c1CCC: binding “binds” (T1, dsDNA, duplex; competition with EtBr, competitor, EtBr displacement fluorescence; Na+ 50 mM, with: EtBr).
Under “deactivation time constant”, COC(=O)Cc1cc2c(cc1C(=O)c1ccc(Cl)cc1Cl)OCO2 is recorded as 3.4 ± 0.2 ms (Gria1; glutamate-evoked current, whole-cell patch clamp; HEK-293T; concentration not given, weighted tau, 1 ms pulse, with: glutamate).
Cc1ccc(S(=O)(=O)NC(CCO)c2ccccc2)cc1 (centres unmarked) — result for IC50: “inactive” (glpG (Escherichia coli, UniProt P09391); enzyme activity, inhibitor, gel-based chimeric protein substrate).
O=C(NC[C@@H](Cc1ccc(F)cc1)N1CCC(O)(C(F)(F)F)CC1)C1(c2ccc(Cl)cc2)CCCC1 — result for “EC50 fold change”: 1270 (TRPA1 (Homo sapiens, UniProt O75762, L881I); calcium influx, agonist; baseline: L881I mutant over wild type).
With Clc1ccc(C2=Nn3c(nnc3C3CCCCC3)SC2)cc1 the Hill slope was 1.86 (Uncharacterized protein; inhibitor, coupled colorimetric; Trypanosoma brucei).

A few entries again:
CCCCCCCCCCCCC/C=C/C=O: “isoTOP-ABPP competition ratio” 1 (Chromatin accessibility complex protein 1 (CHRAC1, Homo sapiens, UniProt Q9NRG0); competitive isoTOP-ABPP, item: CHRAC1 cysteine peptide; Ramos soluble proteome; 100 µM, with: iodoacetamide probe; baseline: DMSO over compound-treated, higher = stronger cysteine blockade).
CC(=O)N[C@H](C(=O)N[C@@H](CCC(=O)O)C(=O)N[C@@H](C)C(=O)N[C@@H](CC(=O)O)C(=O)COC(=O)c1c(C)cccc1C)C(C)C gave a kinact/KI of 338000 M⁻¹ s⁻¹ (CASP6; enzyme activity, inhibitor).
With COc1ccc(OC)c(C2=Nn3c(nnc3-c3ccc(C)cc3)SC2)c1 the Hill slope was 0.89 (Uncharacterized protein; inhibitor, coupled colorimetric; Trypanosoma brucei).
